# Measured values pooled from the literature.
# ± marks the error that the study gave.
Structure (SMILES),test,system,setting,solubility
O=C(NO)[C@H]1CSC(c2ccc(OC(F)(F)F)c(Cl)c2)=N1,,aqueous buffer,pH 7.4,< 3.65 µg/mL
Cn1cc([C@H]2COC[C@@H](c3ccc(C#N)cc3)N2)cn1,"shake-flask, LC-HRMS",aqueous buffer,"16 h, pH 6.8",> 750 µM
O=C(Nc1cccc2[nH]ccc12)c1ccccc1,kinetic solubility,"PBS with NaCl, SDS, ThT",pH 7.4,≥ 300 µM
O=S(=O)(c1ccc(-c2ccc3nccc(Nc4ccncc4)c3c2)cc1)N1CCOCC1,thermodynamic,aqueous medium,,7 µM
O=C(Nc1ccc(OC(F)(F)F)cc1)N[C@H]1CC[C@H](Oc2ccc(C(=O)O)cc2)CC1,,simulated gastric fluid (HCl 0.1 N),"pH 1.0, 37 °C, equilibrium",0.015 ± 0.0028 µg/mL
O=C(Nc1cc(C2CCCCC2)[nH]n1)c1ccc(Br)cc1,,aqueous buffer,pH 7.4,< 3.73 µg/mL
c1ccc(CSc2ncnc3nc[nH]c23)cc1,UV absorbance,culture medium,stock diluted to 0.10 mM,88 µM
NC(=O)N1c2ccccc2C=Cc2ccccc21,UV,DPBS,"18 h, room temperature",92.5 ± 6.6 µM
N=C(CCl)NCCC[C@H](NC(=O)c1ccc2cc(O)ccc2c1)C(=O)NCc1ccccc1,,water,,> 20000 µg/mL
CCOC(=O)N1C[C@@H]([C@H]2CCOC2)N[C@@H](C(C)C)C1,"shake-flask, LC-HRMS",aqueous buffer,"16 h, pH 6.8",> 750 µM
Nc1nc2c(ncn2COCCO)c(=O)[nH]1,,methanol + ethanol,"24 h, 298.2 K, mass fraction 0.7",410 µg/mL
c1ccc(-c2ccc([C@H]3COC[C@@H](C4CCC4)N3)cc2)cc1,"shake-flask, LC-HRMS",aqueous buffer,"16 h, pH 6.8",< 4 µM
CC1(CNC(=O)[C@H](CN)NC(=O)c2ccc(-c3ccccc3)cc2)NC(=O)NC1=O (stereo partly shown),,aqueous buffer,pH 7.4,3260 µg/mL
N#Cc1ccccc1[C@@H]1COC[C@]2(CCOc3ccccc32)N1,"shake-flask, LC-HRMS",aqueous buffer,"16 h, pH 6.8",> 750 µM
COc1cc(Br)cc2c1OCC(C(=O)Nc1ccc3c(c1)CN(C1CCC(=O)NC1=O)C3=O)=C2 (stereo not shown),,DMSO,,≤ 25000 µM
O=C(NO)[C@H]1COC(c2c[nH]c3ccc(F)cc23)=N1,,aqueous buffer,pH 7.4,9.64 µg/mL
CCc1cc(C)cc(CC)c1-c1c(OC(=O)C2(C(F)(F)F)CC2)n2n(c1=O)CCOCC2,,PBS,"2 h, pH 7.4, 25 °C, 2% DMSO",332 µM
c1ccc([C@H]2CC[C@@]3(CC2)COC[C@@H](C2CCOCC2)N3)cc1,"shake-flask, LC-HRMS",aqueous buffer,"16 h, pH 6.8",> 750 µM
c1cncc(-c2cccc(Nc3nccc(NC4CCC4)n3)c2)c1,,citrate phosphate-buffered saline,"18 h, pH 7.4, 1% DMSO",7.6 ± 0.4 µM
O=C(Nc1cc(F)c(F)c(F)c1)c1ccc(F)c(S(=O)(=O)N2CCC(O)CC2)c1,,phosphate buffer,pH 7.0,35.8 µg/mL
COc1ccccc1NC(=O)CSc1nnc(-c2ccccc2Cl)n1-c1ccccc1,,aqueous buffer,pH 7.4,< 3.22 µg/mL
CC(C)(C)c1ccc([C@@H]2COC[C@H](c3ccc(F)c(C#N)c3)N2)cc1,"shake-flask, LC-HRMS",aqueous buffer,"16 h, pH 6.8",< 4 µM
COc1cc(OC)c2c(=O)c(OC)c(-c3ccc(OC)c(OC)c3)oc2c1,HPLC,ethanol:butylene glycol 50:50,,13570 ± 32 ppm
CC(=O)c1cccc(NC(=O)CSc2nnc(-c3cc4ccccc4cc3O)n2C)c1,,aqueous buffer,pH 7.4,< 3.09 µg/mL
CCOC(=O)N1C[C@@H](C2CCOCC2)N[C@@H](C2CCOCC2)C1,"shake-flask, LC-HRMS",aqueous buffer,"16 h, pH 6.8",> 750 µM

# Excerpt of the above:
Structure (SMILES),test,system,setting,solubility
Nc1nc2c(ncn2COCCO)c(=O)[nH]1,,methanol + ethanol,"24 h, 298.2 K, mass fraction 0.7",410 µg/mL
c1ccc(-c2ccc([C@H]3COC[C@@H](C4CCC4)N3)cc2)cc1,"shake-flask, LC-HRMS",aqueous buffer,"16 h, pH 6.8",< 4 µM
